Measured values pooled from the literature.
Numbered parts are unrelated; each lists some results of a single study. ± marks the error that the study gave.
Chain of UniProt Q81Y92 (whole entry, looked up): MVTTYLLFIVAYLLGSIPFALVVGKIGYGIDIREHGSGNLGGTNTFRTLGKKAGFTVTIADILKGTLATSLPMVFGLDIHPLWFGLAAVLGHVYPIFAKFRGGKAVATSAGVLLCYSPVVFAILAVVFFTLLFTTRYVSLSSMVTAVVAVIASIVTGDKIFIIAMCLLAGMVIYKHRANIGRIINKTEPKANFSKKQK
Chain of UniProt P0DOF5 (whole entry, looked up): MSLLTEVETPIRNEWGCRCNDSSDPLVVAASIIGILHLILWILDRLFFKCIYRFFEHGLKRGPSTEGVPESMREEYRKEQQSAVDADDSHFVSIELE

Set 1
Target: Replicase polyprotein 1ab, nsp13 helicase (rep, Severe acute respiratory syndrome coronavirus 2, UniProt P0DTD1)
Mode: inhibitor
Organism: SARS-CoV-2
Tested at: 20 µM
SMILES	inhibition [%]
C[C@H](NC(=O)/C(C#N)=C/c1cccc(Br)n1)c1ccccc1	104
Oc1cc2c(cc1O)[C@@H]1c3ccc(O)c(O)c3OC[C@]1(O)C2	107
CC1OC2(CS1)CN1CCC2CC1 (centres unmarked)	0.2
N=C(N)NN=C1C=CC(=NNC(N)=S)C=C1	97.9
COC(=O)C1=C(C)NC(C)=C(C(=O)OCC(C)C)C1c1ccccc1[N+](=O)[O-] (centres unmarked)	96.1
CC(=O)C(=Cc1cc(O)c(O)c([N+](=O)[O-])c1)C(C)=O	99.2
O=C(Nc1cccnc1)N1CCC(Cc2cccc(Oc3ccc(C(F)(F)F)cn3)c2)CC1	3.41
COc1cc2c(cc1OC)-c1cc3ccc(OC)c(OC)c3c[n+]1CC2	106
COC(=O)C1=C(C)NC(C)=C(C(=O)OC)C1c1ccccc1[N+](=O)[O-]	105
Cc1c(Cl)c(C)[n+]([O-])c(Cl)c1-c1noc(-c2cc(O)c(O)c([N+](=O)[O-])c2)n1	94.8
Cc1ccc(C(=O)Nc2ccc(S(=O)(=O)O)c3cc(S(=O)(=O)O)cc(S(=O)(=O)O)c23)cc1NC(=O)c1cccc(NC(=O)Nc2cccc(C(=O)Nc3cc(C(=O)Nc4ccc(S(=O)(=O)O)c5cc(S(=O)(=O)O)cc(S(=O)(=O)O)c45)ccc3C)c2)c1	88.4
CC(C)N(CCC(=O)c1ccc2ccccc2c1)Cc1ccccc1	105
Oc1ccc2c(c1)CC[C@H](c1ccccc1)[C@@H]2c1ccc(OCCN2CCCC2)cc1	1.3
COCCCOc1ccnc(C[S+]([O-])c2nc3ccccc3[nH]2)c1C (centres unmarked)	91.3
CCN(CC)C(=S)SSC(=S)N(CC)CC	107
CO[C@H](C(=O)[C@@H](O)[C@@H](C)O)[C@@H]1Cc2cc3cc(O[C@H]4C[C@@H](O[C@H]5C[C@@H](O)[C@H](O)[C@@H](C)O5)[C@H](O)[C@@H](C)O4)c(C)c(O)c3c(O)c2C(=O)[C@H]1O[C@H]1C[C@@H](O[C@H]2C[C@@H](O[C@H]3C[C@](C)(O)[C@H](O)[C@@H](C)O3)[C@@H](O)[C@@H](C)O2)[C@H](O)[C@@H](C)O1	96.5
O=C(O)C(Cl)Cl	4.48
CCN1C(=O)CNc2ncc(-c3ccc(-c4nc[nH]n4)nc3C)nc21	93.3
CN(C)C(=S)SSC(=S)N(C)C	105
O=C(O[C@@H]1Cc2c(O)cc(O)cc2O[C@@H]1c1cc(O)c(O)c(O)c1)c1cc(O)c(O)c(O)c1	98
CCOC(=O)Nc1ccc(NCc2ccc(F)cc2)nc1N	108
COc1cc(C(=S)N2CCOCC2)ccc1O	107
O=c1c(O)c(-c2cc(O)c(O)c(O)c2)oc2cc(O)cc(O)c12	45.5
CCC[C@H](NC(=O)[C@@H]1[C@H]2CCC[C@H]2CN1C(=O)[C@@H](NC(=O)[C@@H](NC(=O)c1cnccn1)C1CCCCC1)C(C)(C)C)C(=O)C(=O)NC1CC1	99.8
CC(C)Nc1cccnc1N1CCN(C(=O)c2cc3cc(NS(C)(=O)=O)ccc3[nH]2)CC1	107

Set 2
Cell line: HEK-293T
Effect on: pseudovirus infection
Organism: VSV pseudotyped with SARS-CoV-2 spike
Tested at: 10 µM
Time: 16 h
Reference: vehicle-treated
SMILES	GFP-positive cells [%]
C#C[C@]1(O)CC[C@H]2[C@@H]3CCC4=CC(=O)CC[C@@H]4[C@H]3C(=C)C[C@@]21CC	95.8
N=C(N)N/N=C/c1c(Cl)cccc1Cl	75.4
N=C(N)c1ccc(OCCCCCOc2ccc(C(=N)N)cc2)cc1	77.7

Set 3
Target: Replicase polyprotein 1ab, main protease (rep, Severe acute respiratory syndrome coronavirus 2, UniProt P0DTD1)
Effect on: enzyme activity
Mode: inhibitor
Tested at: 20 µM
Notes: hit confirmation
Compound	inhibition
COc1ccc2c(c1)nc([S+]([O-])Cc1ncc(C)c(OC)c1C)[n]2[Mg][n]1c([S+]([O-])Cc2ncc(C)c(OC)c2C)nc2cc(OC)ccc21 (centres unmarked)	99.7%
CN(C)CCNc1nc2cc(O)ccc2c2c1C(=O)c1ccccc1-2	97.5%
CCCC[C@H](NC(=O)[C@@H]1[C@@H]2[C@H](CN1C(=O)[C@@H](NC(=O)NC1(CS(=O)(=O)C(C)(C)C)CCCCC1)C(C)(C)C)C2(C)C)C(=O)C(=O)NC1CC1	55.3%

Other studies, line by line
Spike glycoprotein: Spike glycoprotein (Severe acute respiratory syndrome coronavirus 2, UniProt P0DTC2)
Spike glycoprotein with ACE2: Spike glycoprotein, with ACE2 (Severe acute respiratory syndrome coronavirus 2, UniProt P0DTC2)
rep main protease: Replicase polyprotein 1ab, main protease (rep, Severe acute respiratory syndrome coronavirus 2, UniProt P0DTD1)
Compound	target or system	assay	test system	conditions	how to read	endpoint	value
CCCCCCC(C)(C)c1cc(O)c2c(c1)OC(C)(C)C1CCC(=O)CC21 (centres unmarked)	SARS-CoV-2	viral replication, GFP plate reader screen		cell-based		EC50	8910 nM
CO[C@H]1C[C@@H]2CC[C@@H](C)[C@@](O)(O2)C(=O)C(=O)N2CCCC[C@H]2C(=O)O[C@H]([C@H](C)C[C@@H]2CC[C@@H](O)[C@H](OC)C2)CC(=O)[C@H](C)/C=C(\C)[C@@H](O)[C@@H](OC)C(=O)[C@H](C)C[C@H](C)/C=C/C=C/C=C/1C	Spike glycoprotein	binding, BLI				koff	0.194 s⁻¹
CC[C@H](C)[C@H](NC(=O)[C@H](CC(C)C)NC(=O)[C@H](Cc1c[nH]c2ccccc12)NC(=O)[C@H](CCC(N)=O)NC(=O)[C@@H](NC(=O)[C@H](Cc1ccccc1)NC(=O)[C@H](C)NC(=O)[C@H](CCCCNC(=O)COCCOCCNC(=O)COCCOCCNC(=O)CC[C@H](NC(=O)CCCCCCCCCCCCCCCCCCC(=O)O)C(=O)O)NC(=O)[C@H](CCC(N)=O)NC(=O)[C@H](C)NC(=O)[C@@H](NC(=O)[C@H](CCCCN)NC(=O)[C@H](CC(=O)O)NC(=O)[C@H](CC(C)C)NC(=O)C(C)(C)NC(=O)[C@@H](NC(=O)[C@H](CO)NC(=O)[C@H](Cc1ccc(O)cc1)NC(=O)[C@H](CC(=O)O)NC(=O)[C@H](CO)NC(=O)[C@@H](NC(=O)[C@H](Cc1ccccc1)NC(=O)[C@@H](NC(=O)CNC(=O)[C@H](CCC(=O)O)NC(=O)C(C)(C)NC(=O)[C@@H](N)Cc1ccc(O)cc1)[C@@H](C)O)[C@@H](C)O)[C@@H](C)CC)[C@@H](C)CC)C(C)C)C(=O)N[C@@H](C)C(=O)NCC(=O)NCC(=O)N1CCC[C@H]1C(=O)N[C@@H](CO)C(=O)N[C@@H](CO)C(=O)NCC(=O)N[C@@H](C)C(=O)N1CCC[C@H]1C(=O)N1CCC[C@H]1C(=O)N1CCC[C@H]1C(=O)N[C@@H](CO)C(N)=O			healthy subjects, serum	0.5 mg, baseline, multiple ascending dose		serum ALT	22 ± 7.6 U/L
CNC(=O)[C@@H](NC(=O)[C@H](CC(C)C)[C@H](O)C(=O)NO)C(C)(C)C	C2C12			1 µM, added: AP venom	reference: venom alone	viability difference	45.4%
Nc1ccc(N=Nc2ccc(-c3ccc(N=Nc4c(S(=O)(=O)O)cc5cc(S(=O)(=O)O)c(N=Nc6ccccc6)c(O)c5c4N)cc3)cc2)c(N)c1	Spike glycoprotein with ACE2	binding to human ACE2, inhibitor	SARS-CoV-2			IC50	38 nM
Cn1c(C(=O)Nc2ccc3c(c2)OCCO3)cc2c(=O)n3ccccc3nc21	SARS-CoV-2	viral replication	Vero E6			EC50	52 nM
Cc1cccc(/C=N/Nc2cc(N3CCOCC3)nc(OCCc3ccccn3)n2)c1	SARS-CoV-2	viral replication	293T-ACE2, USA-WA1/2020	24 h		EC50	12 nM
Cc1cn([C@H]2C[C@H](N=[N+]=[N-])[C@@H](CO)O2)c(=O)[nH]c1=O	HIV-1	viral replication	human PBMC, subtype F 93BR019, CXCR4-tropic clinical isolate			EC50	5.8 ± 3.95 nM
CCc1c(C(=O)C(N)=O)c2c(OCC(=O)O)cccc2n1Cc1ccccc1	C2C12			10 µM, added: KL venom	reference: venom alone	viability difference	22.9%
O=c1cccccc1O	rep main protease	reporter gene (mKate2), inhibitor		20 µM		inhibition	-1.1%
O=C(CCCCCCCCCCOc1ccccc1)CP(=O)(O)O	Glycerol-3-phosphate acyltransferase 3 (plsY3, Bacillus anthracis, UniProt Q81Y92)	inhibitor		200 µM		inhibition	55%
CCOc1ccc(N=Nc2ccc(-c3ccc(N=Nc4c(O)ccc5cc(S(=O)(=O)O)cc(S(=O)(=O)O)c45)c(C)c3)cc2C)cc1	Spike glycoprotein with ACE2	binding to human ACE2, inhibitor	SARS-CoV-2			IC50	2.25 nM
NC12CC3CC(CC(C3)C1)C2	Matrix protein 2 (Influenza A virus, UniProt P0DOF5)	channel activity, inhibitor		100 µM, 2 min		remaining activity	6.1 ± 1%
COc1cc2c(cc1NC(=O)c1ccc(C(C)(C)C)cc1)CCCCN2	Chikungunya virus	viral replication	NHDF			EC90	3300 nM
C[C@H](NC(=O)C(=O)Nc1ccccc1C(C)(C)C)C(=O)N[C@@H](CC(=O)O)C(=O)COc1c(F)c(F)cc(F)c1F	rep main protease	reporter gene (mKate2), inhibitor		20 µM		inhibition	0.881%
O=C(O[C@@H]1Cc2c(O)cc(O)cc2O[C@@H]1c1cc(O)c(O)c(O)c1)c1cc(O)c(O)c(O)c1	Spike glycoprotein	binding, BLI				koff	0.00266 s⁻¹
CC(C)CC(NC(=O)OCc1ccccc1)C(=O)NC(C(=O)NCC(=O)C=[N+]=[N-])C(C)C (centres unmarked)	SARS-CoV-2	viral replication, inhibitor	Vero E6, USA-WA1/2020	24 h		EC90	2050 nM
CN1CCCC(n2nc(Cc3ccc(Cl)cc3)c3ccccc3c2=O)CC1 (centres unmarked)	SARS-CoV-2	viral replication, high-content imaging screen		cell-based		EC50	> 100000 nM
Cn1cnc(Cn2c(=O)[nH]/c(=N\c3cc4cn(C)nc4cc3Cl)n(Cc3cc(F)c(F)cc3F)c2=O)n1			human, moderate renal impairment	oral, 375 mg, decreased GFR TEAE, moderate severity		patients with adverse event	12.5%

Some of these lines once more (set 1):
SMILES	inhibition [%]
COc1cc(C(=S)N2CCOCC2)ccc1O	107
O=c1c(O)c(-c2cc(O)c(O)c(O)c2)oc2cc(O)cc(O)c12	45.5
O=C(O)C(Cl)Cl	4.48
CC1OC2(CS1)CN1CCC2CC1 (centres unmarked)	0.2
C[C@H](NC(=O)/C(C#N)=C/c1cccc(Br)n1)c1ccccc1	104
